{"data": "Measurements of several laboratories", "note": "Every numbered part comes from another study and shows a few of its results, in no order."}
{"data": "Study 1", "target": "Histone acetyltransferase KAT6A, winged helix 1, GST fusion (KAT6A, Homo sapiens, UniProt Q92794, residues 1-85)", "technique": "protein binding microarray", "form": "double-stranded DNA, one strand shown", "medium": "in vitro", "tested at": "not given", "notes": "8-mer, flanks averaged, mean of 2 arrays, mostly near background", "reference": "not given", "direction": "higher = stronger binding", "Construct (chain)": "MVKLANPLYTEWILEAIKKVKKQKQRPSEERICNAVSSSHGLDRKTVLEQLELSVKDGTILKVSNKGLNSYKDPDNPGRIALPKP"}
{"Sequence": "AAGGATAT", "E-score": -0.136}
{"Sequence": "CAAAGGAC", "E-score": -0.0544}
{"Sequence": "ATTGACTA", "E-score": -0.152}
{"data": "Study 2", "target": "Phosphate system positive regulatory protein PHO4, full length, GST-tagged (PHO4, Saccharomyces cerevisiae, UniProt P07270, residues 1-312)", "technique": "competition protein-binding microarray", "form": "double-stranded DNA, one strand shown", "medium": "in vitro", "tested at": "2 µM", "notes": "whole 60-bp probe, lowest competitor level", "together with": "Cbf1 competitor, 0.05 µM", "direction": "higher = stronger binding", "shared flanks, not repeated": "… GTCTTGATTCGCTTGACGCTGCTG", "Construct (chain)": "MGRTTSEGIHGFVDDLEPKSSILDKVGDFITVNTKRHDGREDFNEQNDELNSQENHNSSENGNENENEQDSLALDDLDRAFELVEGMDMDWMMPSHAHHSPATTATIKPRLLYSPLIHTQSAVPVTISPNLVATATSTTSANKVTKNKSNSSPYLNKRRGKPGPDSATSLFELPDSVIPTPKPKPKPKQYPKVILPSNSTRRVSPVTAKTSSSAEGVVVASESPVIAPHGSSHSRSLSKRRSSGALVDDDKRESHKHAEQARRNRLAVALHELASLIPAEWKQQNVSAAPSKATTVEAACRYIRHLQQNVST"}
{"Sequence": "CAGTGAGATTACGCAGCCGTGCGATTCAGGGACAGA", "fluorescence intensity [a.u.]": 4260}
{"Sequence": "CTTCTGTAAATTTGTCACGTGACTTGACGCGCCCCG", "fluorescence intensity [a.u.]": 12900}
{"Sequence": "CAAGTTCCGGGGCGTCACATGGAAACAATGGCACTT", "fluorescence intensity [a.u.]": 6480}
{"Sequence": "TAAAAGAACTAGAGCATCGTGATGGTATGATTCACT", "fluorescence intensity [a.u.]": 7170}
{"Sequence": "CCTAACTTCTTTAGGGGCGTGGCAACTGTCGGGACT", "fluorescence intensity [a.u.]": 8500}
{"data": "Study 3", "target": "Sal-like protein 4, full length isoform A (SALL4, Homo sapiens, UniProt Q9UJQ4, residues 1-1053)", "technique": "universal PBM", "form": "double-stranded DNA, one strand shown", "medium": "in vitro", "tested at": "600 nM", "notes": "8-mer, flanks averaged, mean of replicates", "direction": "higher = stronger binding", "UniProt Q9UJQ4, sequence (whole entry, looked up)": "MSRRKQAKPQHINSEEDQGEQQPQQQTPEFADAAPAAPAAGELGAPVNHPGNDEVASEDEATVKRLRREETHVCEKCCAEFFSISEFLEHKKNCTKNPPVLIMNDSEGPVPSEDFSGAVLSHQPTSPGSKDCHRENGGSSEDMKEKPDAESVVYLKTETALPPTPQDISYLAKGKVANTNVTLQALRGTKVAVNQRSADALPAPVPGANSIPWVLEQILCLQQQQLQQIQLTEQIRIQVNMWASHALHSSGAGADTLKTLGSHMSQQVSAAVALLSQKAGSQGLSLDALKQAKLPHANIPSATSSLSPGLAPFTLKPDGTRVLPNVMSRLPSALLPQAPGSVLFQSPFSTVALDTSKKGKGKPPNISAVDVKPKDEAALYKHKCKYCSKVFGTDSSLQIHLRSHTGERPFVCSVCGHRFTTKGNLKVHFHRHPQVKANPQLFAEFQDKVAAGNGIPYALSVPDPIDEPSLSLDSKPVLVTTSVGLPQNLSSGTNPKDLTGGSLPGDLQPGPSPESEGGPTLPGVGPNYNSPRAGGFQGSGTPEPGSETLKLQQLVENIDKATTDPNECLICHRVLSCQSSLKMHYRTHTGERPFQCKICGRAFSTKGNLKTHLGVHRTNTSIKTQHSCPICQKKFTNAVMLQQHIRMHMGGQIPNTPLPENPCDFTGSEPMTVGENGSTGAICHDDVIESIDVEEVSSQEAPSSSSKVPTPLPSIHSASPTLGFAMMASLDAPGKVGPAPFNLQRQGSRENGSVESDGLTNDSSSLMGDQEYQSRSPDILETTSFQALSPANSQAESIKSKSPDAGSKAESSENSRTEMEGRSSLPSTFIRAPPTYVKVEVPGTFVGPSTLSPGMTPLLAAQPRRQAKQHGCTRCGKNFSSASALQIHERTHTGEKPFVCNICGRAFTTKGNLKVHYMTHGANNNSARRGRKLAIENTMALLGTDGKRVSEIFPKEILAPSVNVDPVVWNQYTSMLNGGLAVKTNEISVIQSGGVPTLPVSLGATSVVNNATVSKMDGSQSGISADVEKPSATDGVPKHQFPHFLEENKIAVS"}
{"Sequence": "TACAGTCA", "E-score": 0.16}
{"Sequence": "AGTAGCTC", "E-score": -0.115}
{"Sequence": "ACTACGTC", "E-score": -0.0123}
{"data": "Further values, each from its own experiment"}
{"Molecule": "PhoQ, residues 284 288 289 292 302 303 WVSSAF", "target": "PhoP, residues 12 14 15 18 19 VHSCL (Escherichia coli, UniProt P23836)", "test": "Sort-seq, refers to: YFP reporter", "test system": "E. coli", "conditions": "PhoQ-PhoP variant library, together with: 10 µM Mg2+", "how to read": "reference: high Mg2+ state, higher = stronger signaling", "endpoint": "fold induction", "result": 5.76}
